Measured values gathered from unrelated publications.
Protocols differ between the studies behind these lines. ± gives the spread as reported.
Organism: Staphylococcus aureus

| SMILES | assay | system | conditions | how to read | measurement | value |
| --- | --- | --- | --- | --- | --- | --- |
| S=C(NCc1ccccn1)NCc1ccccn1 | microbial growth, well diffusion | – | 30 µg/mL | – | inhibition zone | 23 mm |
| CN1CC(=O)N=C1N.C[C@H](CCC(=O)O)[C@H]1CC[C@H]2[C@@H]3[C@@H](O)C[C@@H]4C[C@H](O)CC[C@]4(C)[C@H]3CC[C@]12C | – | TISTR 746 | 1 mg per disc, 18 to 24 h, 37 °C, 6 mm disc | – | inhibition zone diameter | 7.2 ± 0.2 mm |
| O.O=[N+]([O-])[O-].O=c1cc[nH]c(=S)[nH]1.[Ag+].c1ccc(P(c2ccccc2)c2ccccc2)cc1.c1ccc(P(c2ccccc2)c2ccccc2)cc1 | – | MTCC 740, DMSO | 0.1 mL of 50 mg/mL in 8 mm well, 18 to 24 h | – | inhibition zone diameter | 14 mm |
| Cc1ccc2ccc3ccc(C)nc3c2n1.Cc1ccc2ccc3ccc(C)nc3c2n1.O.[Cl-].[Cl-].[Cl-].[Yb+3] | – | methicillin-resistant | 5 mg/mL | – | zone of inhibition | 34 mm |
| CC[C@H](C)[C@H](NC(=O)[C@H](CCCCN)NC(=O)[C@H](CCCCN)NC(=O)[C@H](CC(C)C)NC(=O)[C@H](CCCCN)NC(=O)[C@H](CCC(=O)O)NC(=O)[C@H](CCCCN)NC(=O)[C@@H](NC(=O)[C@H](CCCCN)NC(=O)[C@H](CC(N)=O)NC(=O)[C@H](CCCNC(=N)N)NC(=O)[C@H](Cc1ccccc1)NC(=O)[C@H](CCCCN)NC(=O)[C@H](CCCNC(=N)N)NC(=O)[C@H](CC(C)C)NC(=O)[C@H](CCCNC(=N)N)NC(=O)[C@H](CCCCN)NC(=O)[C@H](CCCNC(=N)N)NC(=O)[C@H](CC(C)C)NC(=O)[C@@H](N)CCCNC(=N)N)[C@@H](C)CC)C(=O)NCC(=O)N[C@@H](CCC(N)=O)C(=O)N[C@@H](CCCCN)C(=O)N[C@H](C(=O)N[C@@H](CCC(N)=O)C(=O)NCC(=O)N[C@@H](Cc1ccccc1)C(=O)N[C@H](C(=O)N1CCC[C@H]1C(=O)N[C@@H](CCCCN)C(=O)N[C@@H](CC(C)C)C(=O)N[C@@H](CCC(N)=O)C(=O)N1CCC[C@H]1C(=O)N[C@@H](CO)C(=O)N[C@@H](CCCCN)C(=O)N[C@@H](CCC(N)=O)C(=O)N[C@@H](CO)C(=O)O)C(C)C)[C@@H](C)CC | inhibition zone | MRSA P1374 | – | – | lethal concentration | 2.13 µM |
| C[C@H](NC(=O)[C@H](CCCCN)NC(=O)[C@H](CCCCN)NC(=O)[C@H](CCC(=O)O)NC(=O)[C@@H]1CCCN1)C(=O)N[C@@H](CCCCN)C(=O)N[C@@H](CCCCN)C(=O)N[C@@H](CCCCN)C(=O)O | OD600 | ATCC 25923 | concentration not given, 18 to 22 h, 37 °C, unheated | – | growth inhibition | 26.5% |
| NCCCC[C@H](NC(=O)[C@H](CCCCN)NC(=O)[C@H](Cc1ccccc1)NC(=O)[C@@H]1CCCN1C(=O)[C@H](Cc1c[nH]c2ccccc12)NC(=O)[C@H](Cc1c[nH]c2ccccc12)NC(=O)[C@H](Cc1c[nH]c2ccccc12)NC(=O)[C@@H]1CCCN1C(=O)[C@H](Cc1ccccc1)NC(=O)[C@H](CCCCN)NC(=O)[C@@H](N)CCCCN)C(N)=O | – | MSSA RN 4220, RPMI medium | 24 h, 37 °C | – | LC99.9 | 30 µM |
| CCOC(=O)c1cnc(N/N=C/c2c(-c3ccc(Cl)cc3)nc3ncccn23)s1 | microbial growth, well diffusion | ATCC23235 | 100 µg/mL | – | inhibition zone | 12 mm |
| CC[C@H](C)[C@@H]1NC(=O)CNC(=O)CNC(=O)[C@H](CO)NC(=O)[C@H]([C@@H](C)CC)NC(=O)[C@H](CCCCN)NC(=O)[C@H](CO)NC(=O)[C@H](CC(C)C)NC(=O)[C@@H](C(C)C)NC(=O)[C@@H]2CCCN2C(=O)[C@H]([C@@H](C)CC)NC(=O)[C@H](C(C)C)NC(=O)[C@H](CC(C)C)NC(=O)[C@@H]2CCCN2C(=O)CNC1=O | time-kill | ATCC 25923 | MIC | – | time to 5-log CFU reduction | ≤ 6 h |
| Cc1cc(=O)nc(NC(=O)NCCCCCCNC(=O)NCCCCCCNC(=O)OCCOCCOCCOCCOCCOCCOCC(=O)N[C@@H](CCCCN)C(=O)N[C@@H](CCCCN)C(=O)N[C@@H](Cc2ccccc2)C(=O)N2CCC[C@H]2C(=O)N[C@@H](Cc2c[nH]c3ccccc23)C(=O)N[C@@H](Cc2c[nH]c3ccccc23)C(=O)N[C@@H](Cc2c[nH]c3ccccc23)C(=O)N2CCC[C@H]2C(=O)N[C@@H](Cc2ccccc2)C(=O)N[C@@H](CCCCN)C(=O)N[C@@H](CCCCN)C(N)=O)[nH]1 | – | MRSA AMC 201, RPMI medium | 24 h, 37 °C | – | LC99.9 | 30 µM |
| CC(=O)N[C@H]1CNC(=O)[C@H](Cc2ccccc2)NC(=O)[C@H](Cc2ccccc2)NC(=O)COCCOCCNC1=O | reporter gene | AH1872 | 10 µM | relative to: DMSO | AgrC activity | inactive |
| ONCc1cc(C(F)(F)F)cc(C(F)(F)F)c1 | – | – | MIC, 72 h | – | biofilm reduction | ~50% |
| c1ccc(CN2CCOCCOCCN(CCCCCCCCN3CCOCCOCCN(CCCCCCCCN4CCOCCOCCN(Cc5ccccc5)CCOCCOCC4)CCOCCOCC3)CCOCCOCC2)cc1 | ethidium bromide activity | 1199B | half MIC, together with: ethidium bromide | relative to: ethidium bromide alone | fold enhancement | 2 fold |
| CCCCCCc1ccc(Oc2ccc(Oc3cccc(=O)[nH]3)cc2)c(O)c1 | – | RN4220 | 4 x MIC, 1 h exposure, 37 °C | – | post-antibiotic effect | 2.04 ± 0.18 h |
| CCc1[nH]c(C(=O)N[C@@H]2CCN(c3nnc(C(C)(C)O)s3)C[C@@H]2OC)nc1Cl | – | MRSA ATCC 43300, mice, sepsis model | intragastric, 10 mg/kg, day 3 | – | survival | 50% |
| C=Cc1cc(OC)c2c(c1)c(=O)oc1c2cc(OC)c2c(O)ccc([C@@H]3O[C@H](C)[C@H](O)[C@@](C)(O)[C@H]3O)c21 | measured: muramic acid | Newman | 1 x MIC | relative to: DMSO | peptidoglycan reduction | 93.3% |
